Measurements pooled from the literature.
Parts stem from different laboratories: compare values within a part only.
Sequence of UniProt P20263 (131-289, looked up): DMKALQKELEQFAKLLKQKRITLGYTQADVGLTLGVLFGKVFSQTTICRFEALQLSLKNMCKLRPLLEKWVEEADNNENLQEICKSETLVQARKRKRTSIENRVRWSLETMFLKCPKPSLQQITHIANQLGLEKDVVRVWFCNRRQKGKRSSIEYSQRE

Sample 1 — technique: RNA Bind-n-Seq; form: RNA; sample: in vitro; tested at: not given; relative to: input RNA pool; direction: higher = stronger binding
Target: RING finger protein unkempt homolog, zinc fingers 1-6, GST-SBP tag (UNK, Homo sapiens, UniProt Q9C0B0, residues 30-357)
Notes: RNA with constant flanks, human and mouse sites, ends assumed
Constant ends, left off below: GGGAGUUCUACAGUCCGACGAUC … CAACAGAGGAUUGAGCAUCA
Residues (chain): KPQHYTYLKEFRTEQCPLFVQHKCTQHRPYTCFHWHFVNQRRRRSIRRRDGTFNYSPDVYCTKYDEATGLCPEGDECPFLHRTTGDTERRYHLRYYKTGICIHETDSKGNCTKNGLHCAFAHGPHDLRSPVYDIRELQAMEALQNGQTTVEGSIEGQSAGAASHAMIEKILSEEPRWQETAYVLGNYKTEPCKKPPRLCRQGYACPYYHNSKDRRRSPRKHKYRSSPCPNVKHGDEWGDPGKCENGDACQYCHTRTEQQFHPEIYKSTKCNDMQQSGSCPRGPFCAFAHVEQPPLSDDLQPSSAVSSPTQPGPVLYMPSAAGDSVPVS
`UUCUUUCCCCGAAACCCAUCGAGCUCCAGCAUGAACUCGGUUCUGGGGAAUCAUCACCCAACUCCCAGCCAUGGCCCUGAUGGGGCGGUGCCUACCAUGGCUGAUGACCUGGGGGAGCCA` gave a bound/input enrichment of 0.115 ratio.
`GAGUAUGUGGCAAUCAAAACAAAGAAACGGAUCCUGUUGUACACCAUGAAUCCCAACAAAUUCAGAGCCUGCCAGUUUCUGAUCAAGUUUCAUGAAAGGAGGAAUGACAAGAUUAUUGUC` gave a bound/input enrichment of 0.217 ratio.
With `ACUCAGUACCUUGGUUUGUCCCAACUGAAUAAGAGUUUGUAUUGUGUGUGUGUUCCUUGAAACCAAUGAUUUUCAAACUUUACAGCUUCAGAAUCACCCAGAGGGCUUGUUAAGACACUA` the bound/input enrichment was 0.228 ratio.
With `AUCUCCUCCAUCCUGGGCACCUGGCUGGACCAGUACUCGGAGGAUUUCUGUCAACCUCCGGACUUUCCCUGCCUCAAGCAGCUGGUGGCCUACGUGCAGCUCAACAUGCCAGGCUCAGAC` the bound/input enrichment was 0.0615 ratio.
`CCGCCCUGGUCUCAGGCGCCAGUGGAAAUGUGUCCAGCGACGUUGCCUACGGGGUAAACAUGCCCGCCGCAAGGGAGGCUGUGACUCCAAGAUGGCUGCCAGGCGGCGCCCCGGAGCCCA` gave a bound/input enrichment of 0.1 ratio.
For `GCUGAACCUGAUAUUAUUGAACAACUGGUGGAAUUUGCUUAUACUGCUAGAAUUUCUGUGAAUAGCAACAAUGUUCAGUCUUUGUUAGAUGCAGCAAAUCAGUACCAGAUUGAACCUGUG`, the bound/input enrichment was 0.332 ratio.
With `CGGAGUGUGCGGCUAGUCAGAGACAAAGACACAGACAAAUUUAAAGGGUUCUGCUAUGUAGAAUUUGAUGAGGUGGAUUCCCUGAAGGAGGCUCUGACUUAUGACGGUGCACUCUUGGGU` the bound/input enrichment was 0.177 ratio.
The bound/input enrichment of `UUUGUUUAUUUGCUAGUGAGUUUCUUUGUAACGUUGAUUUUAUUAAAUGAUAAUAUUUGGUUAGUAUGUCCUAUGUUAAUAAAAAUGAACAAAAUUAAUUUUGCUAUGUUCAGGUGUCUU` is reported as 1.21 ratio.

Sample 2 — cell line: HEK-293T/ACE2; observed: pseudovirus infection; organism: VSV pseudotyped with SARS-CoV-2 spike; tested at: concentration not given; relative to: vehicle-treated
`CN1CCc2nc(C(=O)N[C@@H]3C[C@@H](C(=O)N(C)C)CC[C@@H]3NC(=O)C(=O)Nc3ccc(Cl)cn3)sc2C1.Cc1ccc(S(=O)(=O)O)cc1.O` gave a GFP-positive cells of 104%.
`CCC(CC)[C@H](NC(C)=O)[C@@H]1[C@H](O)[C@@H](C(=O)O)C[C@H]1NC(=N)N.O.O.O` gave a GFP-positive cells of 71.8%.
`CCCCCCCCCC(=O)N[C@@H](Cc1c[nH]c2ccccc12)C(=O)N[C@H](CC(N)=O)C(=O)N[C@@H](CC(=O)O)C(=O)N[C@@H]1C(=O)NCC(=O)N[C@@H](CCCN)C(=O)N[C@@H](CC(=O)O)C(=O)N[C@H](C)C(=O)N[C@@H](CC(=O)O)C(=O)NCC(=O)N[C@H](CO)C(=O)N[C@@H]([C@H](C)CC(=O)O)C(=O)N[C@@H](CC(=O)c2ccccc2N)C(=O)O[C@@H]1C` has a GFP-positive cells of 89%.

Sample 3 — observed: enzyme activity; mode: inhibitor; tested at: 20 µM
Target: Replicase polyprotein 1ab, polymerase (rep, Severe acute respiratory syndrome coronavirus 2, UniProt P0DTD1)
With `O=C(OC[C@H]1O[C@@H](OC(=O)c2cc(O)c(O)c(OC(=O)c3cc(O)c(O)c(O)c3)c2)[C@H](OC(=O)c2cc(O)c(O)c(OC(=O)c3cc(O)c(O)c(O)c3)c2)[C@@H](OC(=O)c2cc(O)c(O)c(OC(=O)c3cc(O)c(O)c(O)c3)c2)[C@@H]1OC(=O)c1cc(O)c(O)c(OC(=O)c2cc(O)c(O)c(O)c2)c1)c1cc(O)c(O)c(OC(=O)c2cc(O)c(O)c(O)c2)c1` the inhibition was 98.5%.
`COc1cc(C#N)ccc1S(=O)(=O)Nc1ccc2c(c1)cc(C)c(=O)n2C` has an inhibition of 3.64%.
The inhibition of `Cn1cc(C(=O)c2cccc3ccccc23)cc1C(=O)O` is reported as 1.09%.
For `CCOc1ccc(C[C@H]2NC(=O)CCSSC[C@@H](C(=O)N3CCC[C@H]3C(=O)N[C@@H](CCCN)C(=O)NCC(N)=O)NC(=O)[C@H](CC(N)=O)NC(=O)[C@H]([C@@H](C)O)NC(=O)[C@H]([C@@H](C)CC)NC2=O)cc1`, the inhibition was 2.23%.
With `c1ccc2c(c1)OCC(C1=NCCN1)O2` (centres unmarked) the inhibition was 5.53%.
`O=C(NCC1CCCCN1)c1cc(OCC(F)(F)F)ccc1OCC(F)(F)F` (centres unmarked) gave an inhibition of -2.76%.
`CC(C)[C@@H](N)C(=O)O` gave an inhibition of -2.08%.
`C[C@H](NC(=O)/C(C#N)=C/c1cccc(Br)n1)c1ccccc1` gave an inhibition of 1.34%.
`Nc1ccc(C(=O)NCC(=O)O)cc1` has an inhibition of -2.01%.
`N[C@@H]1CONC1=O` gave an inhibition of 1.89%.
The inhibition of `FC(F)OC(F)(F)C(F)Cl` (centres unmarked) is reported as 1.69%.
With `Cn1cc(-c2cnc3ccc4ccc(CS(=O)(=O)NCc5ccccn5)cc4c(=O)c3c2)cn1` the inhibition was 16.4%.
`Cc1nc(C)c(C)nc1C` gave an inhibition of -3.43%.
For `CC(=O)Nc1ccc(OC[C@](C)(O)C(=O)Nc2ccc([N+](=O)[O-])c(C(F)(F)F)c2)cc1`, the inhibition was 0.34%.
With `C=C(C)CN1CC[C@]23c4c5ccc(O)c4O[C@H]2c2[nH]c4ccccc4c2C[C@@]3(O)C1C5` the inhibition was -4.67%.
With `CC[C@H]1OC(=O)[C@@](C)(F)C(=O)[C@H](C)[C@@H](O[C@@H]2O[C@H](C)C[C@H](N(C)C)[C@H]2O)[C@](C)(OC)C[C@@H](C)C(=O)[C@H](C)[C@H]2N(CCCCn3cc(-c4cccc(N)c4)nn3)C(=O)O[C@]12C` the inhibition was -1.75%.
With `CC(=O)CCCCn1c(=O)c2c(ncn2C)n(C)c1=O` the inhibition was -0.73%.
The inhibition of `Nc1ccc(C(=O)Nc2cccc(-c3nc(N4CCOCC4)c4oc5ncccc5c4n3)c2)cn1` is reported as -6.9%.
`NC(=O)c1ccc(F)c2c1C[C@@H](N(C1CCC1)C1CCC1)CO2` gave an inhibition of -0.38%.
The inhibition of `CC(C)=CCC/C(C)=C/CC/C(C)=C/CCC(=O)OC/C=C(\C)CCC=C(C)C` is reported as 9.87%.
`CCn1cc(-c2cccc(C(F)(F)F)c2)c2sc(C(=N)NC3CCS(=O)(=O)CC3)cc2c1=O` has an inhibition of -6.89%.
`CC(C)CC(N)C1(c2ccc(Cl)cc2)CCC1` (centres unmarked) has an inhibition of 0.37%.
For `Cc1c(N(C)CS(=O)(=O)O)c(=O)n(-c2ccccc2)n1C`, the inhibition was 5.05%.
`CC(C)c1cc2c(cc1S(=O)(=O)O)[C@@]1(C)CCC[C@@](C)(C(=O)O)[C@@H]1CC2` has an inhibition of -1.74%.
`COc1ccc(-n2c(SCCCN3C(=O)c4cccc5cccc(c45)C3=O)nnc2-c2ccncc2)cc1` has an inhibition of 0.83%.

Sample 4 — observed: enzyme activity; mode: inhibitor; tested at: 20 µM; notes: hit confirmation, no DTT
Target: Replicase polyprotein 1ab, main protease (rep, Severe acute respiratory syndrome coronavirus 2, UniProt P0DTD1)
For `O=C(O)C1=CC(=C(c2ccc(O)c(C(=O)O)c2)c2ccc(O)c(C(=O)O)c2)C=CC1=O`, the inhibition was 95.6%.
For `O=C(CCl)c1ccccc1`, the inhibition was 110%.
`CCN(CC)C(=S)SSC(=S)N(CC)CC` has an inhibition of 99.9%.

Sample 5 — technique: protein-binding microarray; form: double-stranded DNA, one strand shown; sample: in vitro; tested at: 0.8 µM; notes: whole 60-bp probe, no competitor; direction: higher = stronger binding; constant ends, left off below: … GTCTTGATTCGCTTGACGCTGCTG
Target: Centromere-binding protein 1, full length, N-terminal tag (CBF1, Saccharomyces cerevisiae, UniProt P17106, residues 1-351)
Sequence of UniProt P17106 (whole entry, looked up): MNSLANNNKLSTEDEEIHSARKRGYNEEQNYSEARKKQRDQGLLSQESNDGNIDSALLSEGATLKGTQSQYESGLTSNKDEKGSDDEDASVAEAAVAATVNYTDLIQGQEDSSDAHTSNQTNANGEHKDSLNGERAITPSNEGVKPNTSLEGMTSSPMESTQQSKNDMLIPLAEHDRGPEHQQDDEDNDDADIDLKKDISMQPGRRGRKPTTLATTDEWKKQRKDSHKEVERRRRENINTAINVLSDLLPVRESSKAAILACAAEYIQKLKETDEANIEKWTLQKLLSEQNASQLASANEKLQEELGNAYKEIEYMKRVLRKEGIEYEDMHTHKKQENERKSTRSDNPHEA
`GAAAAGCAGTAACCCCACGAAATTTTAACCAGTTAG` gave a fluorescence intensity of 515 a.u.
`GAAAAGGTTCAACATGTGATAGTAGCTCTACCGTAG` has a fluorescence intensity of 1370 a.u.
`CTATGAGTTTTCACTCACGTACAGCTAGAGAATTTC` gave a fluorescence intensity of 593 a.u.
`CTAACATAAATAGTTGACGTGGTAAATTTTCATTTC` gave a fluorescence intensity of 521 a.u.
The fluorescence intensity of `GAACAAATGCATCTGCAGGTGTGCTTCCATTATTAG` is reported as 553 a.u.
With `GAACCAAAGGCTGATCACCTGGTTCGGGCACAATAG` the fluorescence intensity was 1610 a.u.
`GAAATCGAGATACATCAGACGAAAACAGAACGATAG` has a fluorescence intensity of 562 a.u.
With `CTATAGCGCAAAAGTCACCTGGGTGGCGTTTTCTTC` the fluorescence intensity was 850 a.u.

Other studies, line by line — technique: Spec-seq; form: double-stranded DNA, one strand shown; sample: in vitro; tested at: not given; notes: whole probe, mean of replicates; relative to: not given; direction: lower = stronger binding; Sox-I: Sox-I, HMG box (Salpingoeca helianthica)
T1: Sox-I, HMG box (Salpingoeca helianthica); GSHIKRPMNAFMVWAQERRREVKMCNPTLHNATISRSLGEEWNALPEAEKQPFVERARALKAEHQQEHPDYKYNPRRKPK
`GAGTCGTCTCGTCAGCACCATGAACCCGTAGAGCACTCAGGTC`: “relative binding energy” 0.583 ln ratio (T1, Sox-I, HMG box (Salpingoeca helianthica)).
`GAGTCGTCTCGTCAGCACCATCCCTCCGTAGAGCACTCAGGTC`: “relative binding energy” 0.6 ln ratio (T1, Sox-I, HMG box (Salpingoeca helianthica)).
Under “relative binding energy”, `GAGTCGTCTCGTCAGCACTCCATAATCCGTAGAGCACTCAGGTC` is recorded as -0.279 ln ratio (POU domain, class 5, transcription factor 1, POU domain (Pou5f1, Mus musculus, UniProt P20263, residues 131-289)).

Excerpt of the above (sample 3):
The inhibition of `Nc1ccc(C(=O)Nc2cccc(-c3nc(N4CCOCC4)c4oc5ncccc5c4n3)c2)cn1` is reported as -6.9%.
`CC(C)CC(N)C1(c2ccc(Cl)cc2)CCC1` (centres unmarked) has an inhibition of 0.37%.
With `CC(=O)CCCCn1c(=O)c2c(ncn2C)n(C)c1=O` the inhibition was -0.73%.
`COc1ccc(-n2c(SCCCN3C(=O)c4cccc5cccc(c45)C3=O)nnc2-c2ccncc2)cc1` has an inhibition of 0.83%.
For `CCOc1ccc(C[C@H]2NC(=O)CCSSC[C@@H](C(=O)N3CCC[C@H]3C(=O)N[C@@H](CCCN)C(=O)NCC(N)=O)NC(=O)[C@H](CC(N)=O)NC(=O)[C@H]([C@@H](C)O)NC(=O)[C@H]([C@@H](C)CC)NC2=O)cc1`, the inhibition was 2.23%.
`CC(C)[C@@H](N)C(=O)O` gave an inhibition of -2.08%.
The inhibition of `FC(F)OC(F)(F)C(F)Cl` (centres unmarked) is reported as 1.69%.
`CCn1cc(-c2cccc(C(F)(F)F)c2)c2sc(C(=N)NC3CCS(=O)(=O)CC3)cc2c1=O` has an inhibition of -6.89%.
